Measurements gathered from unrelated publications.
Each line is one published result; not all experiments were run side by side. ± gives the spread as reported.
Cell line: MDA-MB-231

The IC50 of Oc1ccccc1-c1nn(-c2ccccn2)[n+](-c2ccccc2)n1 is reported as 17 µM (cell growth or viability, resazurin; 72 h).
The IC50 of COc1cc(/C=C/C(=O)/C=C/c2cn(-c3ccccc3)nc2C(=O)O)ccc1O is reported as 22.6 ± 4.74 µM (cell growth; 72 h).
C=CC(=C)CC[C@]1(C)[C@H](C)C[C@H](O)[C@@]23C(=C[C@H](OC(=O)C(C)C)C[C@@H]12)[C@@H](OC(C)=O)O[C@H]3OC(C)=O gave an IC50 of 0.48 µM (cell growth or viability, SRB).
The IC50 of CN[C@@H](C)C(=O)N[C@H]1CN(C(=O)Cc2ccccc2)CC[C@H]2CC[C@@H](C(=O)NCc3ccc([N+](=O)[O-])cc3)N2C1=O is reported as 0.292 µM (cell growth or viability; 96 h).
The IC50 of COc1ccccc1CNC[C@@](O)(COCc1ccccc1)[C@@H]1CC[C@@H](C)C[C@H]1OCc1ccccc1 is reported as 2 µM (cell growth or viability, MTT; 72 h).
The IC50 of COc1cc2c(cc1-c1coc3c(CC=C(C)C)c(OC)c(OC)cc3c1=O)OCO2 is reported as 20.8 µM (cell growth or viability, MTT; 72 h).
The IC50 of COC(=O)[C@@H](NC(=O)[C@@H](NC(=O)OC(C)(C)C)C(C)C)C(C)C is reported as 7 µM (cell growth or viability, SRB).
The IC50 of CC(C)c1cccc(C(C)C)c1[N+]#[C][Pd-2]([Cl])([Cl])[C]#[N+]c1c(C(C)C)cccc1C(C)C is reported as > 100 µM (cell growth or viability).
CCC(=C(c1ccc(O)cc1)c1ccc(OCCN(C)CCOCCOCCOCCOCCOCCOCCOCCOCCOCCOCCOCCN(C)CCOc2ccc(C(=C(CC)c3ccccc3)c3ccc(O)cc3)cc2)cc1)c1ccccc1 (mixture of isomers) has an IC50 of 0.32 µM (cell growth; 96 h, Z-Z:Z-E:E-E isomer mix 1:2:1).
The IC50 of CN[C@@H](C)C(=O)N[C@H]1CN(C(=O)Cc2ccccc2)CC[C@H]2CC[C@@H](C(=O)NCc3ccccc3Cl)N2C1=O is reported as 0.545 µM (cell growth or viability; 96 h).
The IC50 of O=C(CNc1nc(NNC(=O)c2ccc(Nc3nc(Nc4ccc(C(=O)NNc5nc(NCC(=O)NO)nc(N6CCCCC6)n5)cc4)nc(Nc4ccc(C(=O)NNc5nc(NCC(=O)NO)nc(N6CCCCC6)n5)cc4)n3)cc2)nc(N2CCCCC2)n1)NO is reported as 0.0797 µM (cell growth or viability, MTT; 72 h).
The IC50 of CN(C)C(=S)N(C)N=Cc1ccccc1SSc1ccccc1C=NN(C)C(=S)N(C)C is reported as 0.33 µM (cell growth or viability, MTT; 72 h).
For Cc1ccc(C(C)C)cc1.O=C(N=P(c1ccccc1)(c1ccccc1)c1ccccc1)c1[c-]cccc1.[Cl-].[Ru+2], the IC50 was 7.1 µM (cell growth or viability, MTT; 24 h).
With CCCC/C=N/NC(=O)c1cc2cc(Nc3nccc(-c4cccnc4)n3)ccc2[nH]1 the IC50 was > 20 µM (cell growth or viability, MTT; 48 h).
The IC50 of CCCCCCCCCCCCCCCOC(=O)/C=C/c1ccc(OC)c(O)c1 is reported as 3.4 ± 0.8 µg/mL (cell viability, MTT; 48 h, serum-free medium).
The IC50 of COc1ccc2cc([C@H](C)C(=O)[O][Re-2]3(=[C]=O)(=[C]=O)(=[C]=O)[n+]4c(C)cc(-c5ccccc5)c5ccc6c(-c7ccccc7)cc(C)[n+]3c6c54)ccc2c1 is reported as 6.52 µM (cell growth or viability, resazurin; 72 h).
CC/C(=C(\c1ccccc1)c1ccc(OCCN(C)CCCCCC(=O)NCCc2c[nH]c3ccc(OC)cc23)cc1)c1ccccc1 has an IC50 of 15.8 µM (cell survival, MTT; day 9, dosed days 2, 4, 7).
With C[C@]12CC/C(=N\OCCN3CCOCC3)C=C1CCC1C2CC[C@]2(C)/C(=C/c3ccccn3)CCC12 (stereo partly shown) the IC50 was 26.8 µM (cell growth or viability, MTT; 72 h).
For Cc1cc(C=O)cc(C)c1Oc1cc(Nc2ccc(C#N)cc2)nc2ccncc12, the IC50 was 89.9 ± 2.1 µM (48 h).
O=C(N=P12CN3CN(CN(C3)C1)C2)c1cccc[c]1[Au]([Cl])[Cl] gave an IC50 of > 125 µM (cell growth or viability, MTT; 24 h).
For CC(C)c1cccc(C(C)C)c1[N+]#[C][Pt-]([Cl])([Cl])=[C](Nc1cccc(CN[C](Nc2c(C(C)C)cccc2C(C)C)=[Au][Cl])c1)Nc1c(C(C)C)cccc1C(C)C, the IC50 was > 100 µM (cell growth or viability).
For C[C@@H]1O[C@@H](OC(=O)/C=C/c2ccc(O)cc2)[C@H](OC(=O)/C=C/c2ccc(O)cc2)[C@H](O)[C@H]1O, the IC50 was 17.7 µM (cell proliferation, MTT; with: HGF).
For CC(C)=CCc1c2c(c(O)c3c(=O)c(-c4ccc(O)cc4O)coc13)C=CC(C)(C)O2, the IC50 was 15.3 µM (cell growth or viability, MTT; 24 h).
The IC50 of [Cl][Au-][c]1n(-c2c(C(c3ccccc3)c3ccccc3)cc(C(c3ccccc3)c3ccccc3)cc2C(c2ccccc2)c2ccccc2)c2c([n+]1-c1c(C(c3ccccc3)c3ccccc3)cc(C(c3ccccc3)c3ccccc3)cc1C(c1ccccc1)c1ccccc1)-c1cccc3cccc-2c13 is reported as > 50 µM (cell growth or viability, MTT; 72 h).
With Cc1cc(C)c(N[C](NCc2ccc(N[C](Nc3c(C(C)C)cccc3C(C)C)=[Pt-]([Cl])([Cl])[C]#[N+]c3c(C(C)C)cccc3C(C)C)cc2)=[Au][Cl])c(C)c1 the IC50 was > 100 µM (cell growth or viability).
COc1ccc(COC[C@](O)(CNCc2ccc(F)cc2)[C@@H]2CC[C@@H](C)C[C@H]2OCc2ccc(OC)cc2)cc1 gave an IC50 of 3.2 µM (cell growth or viability, MTT; 72 h).
With CC(C)c1cccc(C(C)C)c1[N+]#[C][Pd-]([Cl])([Cl])=[C](Nc1cccc(CN[C](Nc2c(C(C)C)cccc2C(C)C)=[Au][Cl])c1)Nc1c(C(C)C)cccc1C(C)C the IC50 was 6 µM (cell growth or viability).
With O=C(Nc1ccc([N+](=O)[O-])cc1)C(c1ccc(C(F)(F)F)cc1)N(Cc1ccccc1)C(=O)c1ccc2ccccc2n1 (stereo not shown) the IC50 was 40.2 ± 3.1 µM (48 h).
CN[C@@H](C)C(=O)N[C@H]1CN(C(=O)Cc2ccccc2)CC[C@H]2CC[C@@H](C(=O)NCc3cccc(F)c3)N2C1=O gave an IC50 of 0.197 µM (cell growth or viability; 96 h).
With C[C@@H]1CC[C@@H]([C@@](O)(CNCc2ccccc2F)COCc2ccccc2)[C@H](OCc2ccccc2)C1 the IC50 was 6 µM (cell growth or viability, MTT; 72 h).
With Cc1ccc(S(=O)(=O)[O][Re-2]2(=[C]=O)(=[C]=O)(=[C]=O)[n+]3c(C)cc(-c4ccccc4)c4ccc5c(-c6ccccc6)cc(C)[n+]2c5c43)cc1 the IC50 was 0.248 µM (cell growth or viability, resazurin; 72 h).
CCOC(=O)c1ccc2c(c1)n(CC)[c]([Au-][Cl])[n+]2CC gave an IC50 of 5.2 µM (cell growth or viability, crystal violet; 96 h).
For COc1cc2c(cc1OCCCOc1no[n+]([O-])c1S(=O)(=O)c1ccccc1)CCC1C2CCC2(C)C(O)CCC12 (stereo not shown), the IC50 was 0.0212 µM (cell growth or viability, MTT; 48 h).
N#C[CH2][Pd]1[O]c2ccc(Br)cc2C=Nc2cccnc2[N]1C1CCCCC1 gave an IC50 of 34.2 µM (cell growth or viability, MTT; 48 h).
With CCC(CCC(C)C1CCC2C3CCC4=CC(=O)CCC4(C)C3CCC12C)C(C)C (stereo not shown) the IC50 was 195 µg/mL (cell growth or viability, resazurin; 24 h).
The IC50 of CCCCCCCCCCCCCCCOC(=O)/C=C/c1ccc(O)cc1 is reported as 1.5 ± 0.1 µg/mL (cell viability, MTT; 48 h, serum-free medium).
COc1ccc(/C(=C(/CCn2cc(CN3C(=O)C(=O)c4ccccc43)nn2)c2ccccc2)c2ccccc2)cc1 has an IC50 of 52.3 µM (cell growth or viability, MTT).

Some of these lines once more:
With Cc1cc(C)c(N[C](NCc2ccc(N[C](Nc3c(C(C)C)cccc3C(C)C)=[Pt-]([Cl])([Cl])[C]#[N+]c3c(C(C)C)cccc3C(C)C)cc2)=[Au][Cl])c(C)c1 the IC50 was > 100 µM (cell growth or viability).
COc1ccc(COC[C@](O)(CNCc2ccc(F)cc2)[C@@H]2CC[C@@H](C)C[C@H]2OCc2ccc(OC)cc2)cc1 gave an IC50 of 3.2 µM (cell growth or viability, MTT; 72 h).
With CC(C)c1cccc(C(C)C)c1[N+]#[C][Pd-]([Cl])([Cl])=[C](Nc1cccc(CN[C](Nc2c(C(C)C)cccc2C(C)C)=[Au][Cl])c1)Nc1c(C(C)C)cccc1C(C)C the IC50 was 6 µM (cell growth or viability).
With O=C(Nc1ccc([N+](=O)[O-])cc1)C(c1ccc(C(F)(F)F)cc1)N(Cc1ccccc1)C(=O)c1ccc2ccccc2n1 (stereo not shown) the IC50 was 40.2 ± 3.1 µM (48 h).
CN[C@@H](C)C(=O)N[C@H]1CN(C(=O)Cc2ccccc2)CC[C@H]2CC[C@@H](C(=O)NCc3cccc(F)c3)N2C1=O gave an IC50 of 0.197 µM (cell growth or viability; 96 h).
